Experimental data pooled from the literature.
Numbers after ± are the reported error.

O=C1C(n2nc(-c3c(O)c4ccccc4oc3=O)cc2-c2ccc(Cl)cc2)c2cc(Br)ccc2N1Cc1ccccc1 (stereo not drawn) — IC50 (A-375; cell growth or viability, SRB; 72 h): 1.02 µM
O=c1[nH]nc(-c2nnc(SCNC3CCCCC3)o2)c2ccccc12 — IC50 (WI-38; cell growth or viability, MTT; 48 h): 49.2 µM
O=c1c(/C=C/c2ccccc2)nc2ccccc2n1Cc1ccccc1 — IC50 (HeLa 229; cell growth or viability, MTT; 72 h): > 50 µM
CCCCC[C@H](CC(=O)NO)C(=O)N[C@H](C(=O)N1CCC[C@H]1CO)C(C)C — IC50 (U-937; aminopeptidase activity; added: Ala-AMC 50): 0.16 µM
CCCCNc1ccc(C(=O)OCCN(CC)CC)c(OC)c1 — IC50 (ventricular myocytes, R176Q mouse; Ca2+ spark frequency; 2 h, added: isoproterenol 100 nM): 0.0372 µM
COc1ccc(/C=C\c2cc(OC)c(OC)c(OC)c2)cc1O — IC50 (HeLa transfected with βIII-tubulin; cell growth, SRB): 0.0052 ± 0.0004 µM
CC(=O)[O][Pt]([NH2])([Cl])([Cl])([NH]C1CCCCC1)[O]C(C)=O — IC50 (SW480; cell viability, MTT; 96 h): 1.5 ± 0.1 µM
C=CC(=O)N1CCC[C@@H](n2nc(-c3ccc(Oc4ccccc4)cc3)c3c(N)ncnc32)C1 — IC50 (SU-DHL-6; cell growth or viability, CCK-8; 72 h): 2.43 µM
O=c1[nH]cc(F)c(=O)[nH]1 — IC50 (ASPC1; cell growth or viability, MTT; 72 h): 52.4 µM
CCNC(=O)Nc1ccc(S(=O)(=O)Oc2cccnc2Br)cc1 — IC50 (MOLM-13; cell growth or viability, MTT; 48 h): 1.9 µM
Cc1ccc(NC(=O)CSc2nnc(-c3ccc(NC(=O)c4cccnc4)cc3)n2N)cc1 — IC50 (RAW264.7; TNF-α release, inhibitor, ELISA; LPS-stimulated): 11.1 µM
O=C1Nc2ccc(Cl)cc2C1n1nc(-c2c(O)c3ccccc3oc2=O)cc1-c1ccc(F)cc1 (stereo not drawn) — IC50 (A-375; cell growth or viability, SRB; 72 h): 4.3 µM
CC[C@H](C)n1cc(C)c2c(C(=O)NCc3c(C)cc(C)[nH]c3=O)cc(-c3ccc(N4CCNCC4)nc3)cc21 — IC50 (SU-DHL10; cell growth or viability): 0.7 µM
Cc1cc(C(=O)/C(=C\c2ccc(Cl)cc2)c2ccc(Cl)cc2)c(C(=O)N2CCCCC2)c(=O)[nH]1 — IC50 (A-375; cell proliferation, MTT; 72 h): > 10 µM
CC(=O)c1ccc(NC(=O)CSc2nnc(-c3ccc(NC(=O)c4cccnc4)cc3)o2)cc1 — IC50 (RAW264.7; reactive oxygen species, inhibitor, fluorescence; LPS-stimulated): 25.6 µM
O=C(NCCCl)Nc1ccc(S(=O)(=O)Oc2cccnc2Br)cc1 — IC50 (MOLM-13; cell growth or viability, MTT; 48 h): 2.6 µM
O=c1c(O)c(-c2ccc(O)c(O)c2)oc2cc(O)cc(O)c12 — IC50 (U-937; cell growth or viability, ATP luminescence; 24 h): 8 µM
O=C1Nc2ccc(OC(F)(F)F)cc2C1n1nc(-c2c(O)c3ccccc3oc2=O)cc1-c1ccc(Br)cc1 (stereo not drawn) — IC50 (A-375; cell growth or viability, SRB; 72 h): 4.37 µM
O=c1[nH]c2ccccc2nc1/C=C/c1ccccc1F — IC50 (HeLa 229; cell growth or viability, MTT; 72 h): > 50 µM
CC[C@@]1(O)C(=O)OCc2c1cc1n(c2=O)Cc2cc3cc(O)ccc3nc2-1 — IC50 (SW480; cell growth or viability, MTT; 48 h): 0.241 µM
O=C1Nc2ccc(Br)cc2C1n1nc(-c2c(O)c3ccccc3oc2=O)cc1-c1ccc(Br)cc1 (stereo not drawn) — IC50 (A-375; cell growth or viability, SRB; 72 h): 7.32 µM
Cc1ccc(C)c(NC(=O)CSc2nnc(-c3ccc(NC(=O)c4cccnc4)cc3)o2)c1 — IC50 (RAW264.7; reactive oxygen species, inhibitor, fluorescence; LPS-stimulated): 14.1 µM
O=c1c(/C=C/c2ccccc2Cl)nc2ccccc2n1Cc1ccccc1 — IC50 (HeLa 229; cell growth or viability, MTT; 72 h): > 50 µM
CC(=O)OC[C@H]1O[C@@H]([S-])[C@H](OC(C)=O)[C@@H](OC(C)=O)[C@@H]1OC(C)=O.CCP(CC)CC.[Au+] — IC50 (GIST882; cell growth or viability, resazurin; 72 h): 0.38 µM
Cc1ccc(NC(=O)CSc2nnc(-c3ccc(NC(=O)c4cccnc4)cc3)o2)cc1 — IC50 (RAW264.7; TNF-α release, inhibitor, ELISA; LPS-stimulated): 3.51 µM
COc1ccc(Nc2ncnc(-c3cccnc3Nc3cc(NC(=O)c4ccc(CN5CCN(C)CC5)cc4)ccc3C)n2)cc1 — IC50 (Ba/F3 expressing BCR-ABL T315I; cell proliferation, inhibitor, trypan blue exclusion; 48 h, without IL-3): < 0.5 µM
CCNC(=O)Nc1ccc(S(=O)(=O)Oc2cnccc2I)cc1 — IC50 (MOLM-13; cell growth or viability, MTT; 48 h): 1.1 µM
O=C(Nc1ccc(-c2n[nH]c(=S)n2N=Cc2c[nH]c3ccccc23)cc1)c1cccnc1 — IC50 (RAW264.7; reactive oxygen species, inhibitor, fluorescence; LPS-stimulated): 1.78 µM
CC(C)Oc1ccc(C(=O)Cn2ccnc2)cc1-n1c(CN2CCN(C(=O)COc3ccc(Cl)cc3)CC2)nc2ccccc2c1=O — IC50 (SU-DHL-16; cell viability, CellTiter-Glo; 24 h): < 0.1 µM
Nc1ccn([C@@H]2CS[C@H](CO)O2)c(=O)n1 — IC50 (HepG2.4D14; cell growth; 96 h): 180.8 ± 0.09 µM
Nc1nc2sc(CCCCc3ccc(C(=O)N[C@@H](CCC(=O)O)C(=O)O)cc3)cc2c(=O)[nH]1 — IC50 (KB and IGROV-1; cell growth): 0.0047 to 0.334 µM
c1cc(-c2cnn3cc(-c4ccc(OCCN5CCCCC5)cc4)cnc23)ccn1 — IC50 (mouse PASMC; Smad1/5/8 phosphorylation, inhibitor, immunoblotting; added: BMP4 10 ng/mL): ~0.4 µM
Cc1ccc(NC(=O)CSc2nnc(-c3n[nH]c(=O)c4ccccc34)o2)cc1 — IC50 (WI-38; cell growth or viability, MTT; 48 h): 66 µM
Cc1ncsc1-c1ccc(CNC(=O)[C@@H]2C[C@H](O)CN2C(=O)[C@@H](NC(=O)C2(F)CC2)C(C)(C)C)c(OCCOc2ccc(CN3CCN(c4cc(-c5ccccc5O)nnc4N)CC3)cc2)c1 — IC50 (NCI-H1568 SMARCA4-deficient; cell growth, CellTiter-Glo; 168 h): 0.441 µM
C=CCN(CC=C)C(=S)[S][Sn]([S]C(=S)N(CC=C)CC=C)([c]1ccccc1)[c]1ccccc1 — IC50 (WIL2-NS; cell growth or viability, MTT): 1.2 µM
O=C1C(=Cc2ccccc2)CN(C(=O)c2ccccc2C(=O)N2CC(=Cc3ccccc3)C(=O)C(=Cc3ccccc3)C2)CC1=Cc1ccccc1 — IC50 (CEM T-lymphocytes; cell proliferation; 3 d): 1.45 ± 0.85 µM
CC(NCCc1ccc(O)cc1)C(O)c1ccc(O)cc1 (stereo not drawn) — IC50 (THP-1; TNF-alpha production, inhibitor; added: LPS): 3.5 µM
CCCCCCCCCCCCCCCC(=O)OC[C@H](COP(=O)([O-])OCC[N+](C)(C)C)OC(=O)Cc1c(C)n(C(=O)c2ccc(Cl)cc2)c2ccc(OC)cc12 — IC50 (MCF-10A; cell growth or viability, SRB; 72 h): 309 µM
CC(C)/C=C/c1c(O)cc(/C=C/c2ccc(O)c(O)c2)cc1O — IC50 (HL-60; reactive oxygen species, inhibitor, fluorescence): 0.45 mg/L
Nc1nc2[nH]c(CCCCc3ccc(C(=O)N[C@@H](CCC(=O)O)C(=O)O)nc3)cc2c(=O)[nH]1 — IC50 (IGROV1; cell growth; without folic acid): < 0.001 µM
CC(C)(O)C(O)Cc1cc(/C=C/c2cc(O)cc(O)c2)ccc1O (stereo not drawn) — IC50 (HL-60; reactive oxygen species, inhibitor, fluorescence): 0.19 mg/L
Cc1ccc(C)c(NC(=O)CSc2nnc(-c3ccc(NC(=O)c4cccnc4)cc3)n2N)c1 — IC50 (RAW264.7; NO release, inhibitor, Griess; LPS-stimulated): 9.58 µM

Repeated from above:
COc1ccc(Nc2ncnc(-c3cccnc3Nc3cc(NC(=O)c4ccc(CN5CCN(C)CC5)cc4)ccc3C)n2)cc1 — IC50 (Ba/F3 expressing BCR-ABL T315I; cell proliferation, inhibitor, trypan blue exclusion; 48 h, without IL-3): < 0.5 µM
CCCCC[C@H](CC(=O)NO)C(=O)N[C@H](C(=O)N1CCC[C@H]1CO)C(C)C — IC50 (U-937; aminopeptidase activity; added: Ala-AMC 50): 0.16 µM
CC(=O)[O][Pt]([NH2])([Cl])([Cl])([NH]C1CCCCC1)[O]C(C)=O — IC50 (SW480; cell viability, MTT; 96 h): 1.5 ± 0.1 µM
Cc1ccc(NC(=O)CSc2nnc(-c3ccc(NC(=O)c4cccnc4)cc3)o2)cc1 — IC50 (RAW264.7; TNF-α release, inhibitor, ELISA; LPS-stimulated): 3.51 µM
COc1ccc(/C=C\c2cc(OC)c(OC)c(OC)c2)cc1O — IC50 (HeLa transfected with βIII-tubulin; cell growth, SRB): 0.0052 ± 0.0004 µM
